Measured values of several laboratories.
Compare with care: the assays were run in different laboratories. ± gives the spread as reported.
NCK2 SH2 domain: Cytoplasmic protein NCK2, SH2 domain (NCK2, Homo sapiens, UniProt O43639)
UniProt P00512, sequence (whole entry, unmodified, looked up): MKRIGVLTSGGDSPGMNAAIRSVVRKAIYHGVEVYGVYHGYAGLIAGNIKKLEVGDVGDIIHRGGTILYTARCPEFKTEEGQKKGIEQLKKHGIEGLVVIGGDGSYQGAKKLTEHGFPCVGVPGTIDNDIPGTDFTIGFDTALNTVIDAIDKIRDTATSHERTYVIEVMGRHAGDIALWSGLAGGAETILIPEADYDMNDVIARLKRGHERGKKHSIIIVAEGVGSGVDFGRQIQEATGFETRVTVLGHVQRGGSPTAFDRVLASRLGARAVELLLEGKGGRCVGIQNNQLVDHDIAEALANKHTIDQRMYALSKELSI
UniProt O43639, sequence (whole entry, looked up): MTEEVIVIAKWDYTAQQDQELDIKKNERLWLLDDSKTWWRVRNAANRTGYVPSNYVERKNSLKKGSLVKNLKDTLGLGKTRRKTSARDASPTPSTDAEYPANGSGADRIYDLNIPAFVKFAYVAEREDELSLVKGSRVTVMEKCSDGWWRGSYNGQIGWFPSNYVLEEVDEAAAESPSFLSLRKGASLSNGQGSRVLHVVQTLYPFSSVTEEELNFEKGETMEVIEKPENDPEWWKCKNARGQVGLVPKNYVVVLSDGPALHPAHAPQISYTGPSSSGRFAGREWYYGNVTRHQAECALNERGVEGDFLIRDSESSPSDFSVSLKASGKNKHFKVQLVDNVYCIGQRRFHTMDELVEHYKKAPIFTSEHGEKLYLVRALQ
UniProt P42681, sequence (whole entry, looked up): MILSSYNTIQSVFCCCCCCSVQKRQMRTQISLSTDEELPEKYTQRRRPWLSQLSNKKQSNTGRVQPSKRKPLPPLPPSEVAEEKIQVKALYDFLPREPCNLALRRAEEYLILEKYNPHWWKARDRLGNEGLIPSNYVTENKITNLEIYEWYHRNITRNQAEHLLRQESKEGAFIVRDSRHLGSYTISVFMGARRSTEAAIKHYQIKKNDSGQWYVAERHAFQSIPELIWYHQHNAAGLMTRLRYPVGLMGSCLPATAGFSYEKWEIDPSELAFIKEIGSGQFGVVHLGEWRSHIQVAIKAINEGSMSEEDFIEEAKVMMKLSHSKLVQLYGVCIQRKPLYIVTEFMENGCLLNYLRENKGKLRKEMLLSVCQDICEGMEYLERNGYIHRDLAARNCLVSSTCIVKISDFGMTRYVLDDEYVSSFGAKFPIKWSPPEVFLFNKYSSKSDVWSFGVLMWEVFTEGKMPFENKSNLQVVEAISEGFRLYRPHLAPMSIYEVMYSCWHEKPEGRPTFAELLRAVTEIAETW
UniProt Q14145, sequence (whole entry, looked up): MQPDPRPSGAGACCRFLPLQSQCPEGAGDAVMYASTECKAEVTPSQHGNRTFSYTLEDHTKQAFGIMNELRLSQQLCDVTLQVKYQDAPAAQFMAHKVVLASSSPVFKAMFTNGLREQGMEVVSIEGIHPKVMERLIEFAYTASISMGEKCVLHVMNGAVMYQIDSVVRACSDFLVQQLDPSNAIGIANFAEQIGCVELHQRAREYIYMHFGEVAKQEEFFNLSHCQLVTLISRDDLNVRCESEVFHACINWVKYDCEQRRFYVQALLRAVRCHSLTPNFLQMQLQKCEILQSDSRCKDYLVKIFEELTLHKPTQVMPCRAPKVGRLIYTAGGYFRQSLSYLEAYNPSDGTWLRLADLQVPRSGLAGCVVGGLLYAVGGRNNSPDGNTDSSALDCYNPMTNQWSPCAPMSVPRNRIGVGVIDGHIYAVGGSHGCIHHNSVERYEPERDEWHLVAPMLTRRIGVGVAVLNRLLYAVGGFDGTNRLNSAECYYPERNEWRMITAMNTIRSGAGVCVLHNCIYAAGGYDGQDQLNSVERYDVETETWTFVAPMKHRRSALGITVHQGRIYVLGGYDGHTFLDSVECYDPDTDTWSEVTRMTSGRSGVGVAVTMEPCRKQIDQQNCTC
UniProt Q06151, sequence (whole entry, unmodified, looked up): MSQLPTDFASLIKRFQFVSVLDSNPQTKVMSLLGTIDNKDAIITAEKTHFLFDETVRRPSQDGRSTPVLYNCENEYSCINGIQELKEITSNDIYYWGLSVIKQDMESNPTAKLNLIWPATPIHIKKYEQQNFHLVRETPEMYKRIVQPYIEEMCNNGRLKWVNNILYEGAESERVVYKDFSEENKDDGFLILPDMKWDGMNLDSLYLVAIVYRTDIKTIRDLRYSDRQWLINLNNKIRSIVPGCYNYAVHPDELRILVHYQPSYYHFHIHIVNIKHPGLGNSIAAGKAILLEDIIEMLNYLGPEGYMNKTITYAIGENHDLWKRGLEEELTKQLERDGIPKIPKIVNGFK
UniProt O60674, sequence (whole entry, looked up): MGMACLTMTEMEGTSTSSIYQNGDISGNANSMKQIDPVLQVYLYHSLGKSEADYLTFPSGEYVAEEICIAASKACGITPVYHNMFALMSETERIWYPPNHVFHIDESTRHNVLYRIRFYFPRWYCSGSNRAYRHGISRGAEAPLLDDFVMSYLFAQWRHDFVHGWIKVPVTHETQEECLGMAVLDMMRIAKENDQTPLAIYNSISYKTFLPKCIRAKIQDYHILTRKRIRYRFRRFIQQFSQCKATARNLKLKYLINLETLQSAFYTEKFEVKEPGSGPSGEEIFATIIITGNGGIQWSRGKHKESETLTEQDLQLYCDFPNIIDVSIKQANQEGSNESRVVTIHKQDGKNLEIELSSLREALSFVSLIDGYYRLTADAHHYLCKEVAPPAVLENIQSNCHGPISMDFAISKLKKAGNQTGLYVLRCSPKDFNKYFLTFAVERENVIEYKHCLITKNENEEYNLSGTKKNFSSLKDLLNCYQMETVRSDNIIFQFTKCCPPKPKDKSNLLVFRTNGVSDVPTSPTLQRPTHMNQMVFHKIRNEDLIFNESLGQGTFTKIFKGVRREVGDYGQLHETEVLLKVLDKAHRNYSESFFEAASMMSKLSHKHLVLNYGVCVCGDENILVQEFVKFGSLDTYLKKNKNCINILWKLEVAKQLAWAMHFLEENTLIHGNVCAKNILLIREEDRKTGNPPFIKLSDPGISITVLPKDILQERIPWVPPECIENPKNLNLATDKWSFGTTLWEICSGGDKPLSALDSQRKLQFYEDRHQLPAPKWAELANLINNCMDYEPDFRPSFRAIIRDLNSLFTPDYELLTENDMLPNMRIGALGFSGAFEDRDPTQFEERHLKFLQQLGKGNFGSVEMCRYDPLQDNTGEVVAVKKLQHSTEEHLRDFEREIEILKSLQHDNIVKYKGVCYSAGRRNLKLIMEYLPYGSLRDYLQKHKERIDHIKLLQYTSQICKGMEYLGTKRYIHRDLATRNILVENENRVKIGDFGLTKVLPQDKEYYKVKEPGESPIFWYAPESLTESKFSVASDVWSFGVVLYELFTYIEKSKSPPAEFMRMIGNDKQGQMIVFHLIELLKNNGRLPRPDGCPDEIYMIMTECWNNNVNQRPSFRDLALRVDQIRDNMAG
UniProt P50750, sequence (whole entry, looked up): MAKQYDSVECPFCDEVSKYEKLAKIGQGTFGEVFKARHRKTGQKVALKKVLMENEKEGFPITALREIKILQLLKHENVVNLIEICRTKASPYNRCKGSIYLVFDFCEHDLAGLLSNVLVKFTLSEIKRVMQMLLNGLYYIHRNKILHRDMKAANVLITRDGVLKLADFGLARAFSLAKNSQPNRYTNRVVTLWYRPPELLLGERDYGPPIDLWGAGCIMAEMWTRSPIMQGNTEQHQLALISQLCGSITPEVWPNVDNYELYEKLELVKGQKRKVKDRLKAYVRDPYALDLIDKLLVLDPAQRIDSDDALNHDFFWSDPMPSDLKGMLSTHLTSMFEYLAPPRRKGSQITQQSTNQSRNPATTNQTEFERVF
UniProt P08510, sequence (whole entry, unmodified, looked up): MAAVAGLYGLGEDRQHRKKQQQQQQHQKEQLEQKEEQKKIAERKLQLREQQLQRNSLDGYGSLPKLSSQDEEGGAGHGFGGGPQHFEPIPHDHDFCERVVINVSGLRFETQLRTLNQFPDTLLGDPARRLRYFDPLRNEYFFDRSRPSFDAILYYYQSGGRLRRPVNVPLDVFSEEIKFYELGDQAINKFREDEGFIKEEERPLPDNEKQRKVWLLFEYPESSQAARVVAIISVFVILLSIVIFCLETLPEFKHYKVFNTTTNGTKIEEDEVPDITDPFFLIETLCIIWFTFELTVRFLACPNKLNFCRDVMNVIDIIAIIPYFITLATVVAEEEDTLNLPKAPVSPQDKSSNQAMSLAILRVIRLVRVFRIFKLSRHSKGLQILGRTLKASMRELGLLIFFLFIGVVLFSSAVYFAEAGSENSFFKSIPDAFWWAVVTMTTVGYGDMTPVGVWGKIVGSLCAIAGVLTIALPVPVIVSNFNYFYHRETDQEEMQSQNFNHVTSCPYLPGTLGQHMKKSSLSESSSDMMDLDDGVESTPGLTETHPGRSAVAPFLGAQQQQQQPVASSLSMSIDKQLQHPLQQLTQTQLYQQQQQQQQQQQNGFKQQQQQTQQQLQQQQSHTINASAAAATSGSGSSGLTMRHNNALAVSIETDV
UniProt P07700, sequence (whole entry, unmodified, looked up): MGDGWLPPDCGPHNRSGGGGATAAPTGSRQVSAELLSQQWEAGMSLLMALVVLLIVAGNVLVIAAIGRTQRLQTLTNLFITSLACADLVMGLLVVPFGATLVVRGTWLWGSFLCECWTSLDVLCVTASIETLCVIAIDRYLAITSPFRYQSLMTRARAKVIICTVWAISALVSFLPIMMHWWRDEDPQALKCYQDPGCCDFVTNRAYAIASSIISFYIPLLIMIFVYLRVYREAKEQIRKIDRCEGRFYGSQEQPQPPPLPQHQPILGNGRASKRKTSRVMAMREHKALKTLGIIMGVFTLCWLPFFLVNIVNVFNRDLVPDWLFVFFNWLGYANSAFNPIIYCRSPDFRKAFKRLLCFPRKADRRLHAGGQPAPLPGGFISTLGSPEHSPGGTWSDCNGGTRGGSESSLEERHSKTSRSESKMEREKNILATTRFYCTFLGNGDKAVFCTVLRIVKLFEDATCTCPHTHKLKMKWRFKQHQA

CC[C@H](C)[C@H](NC(=O)[C@H](Cc1ccc(OP(=O)(O)O)cc1)NC(=O)[C@H](CCC(=O)O)NC(=O)[C@H](Cc1c[nH]cn1)NC(=O)CNC(=O)[C@H](CC(=O)O)NC(=O)[C@H](CO)NC(=O)[C@H](CO)NC(=O)[C@@H](NC(=O)[C@H](CO)NC(=O)[C@H](CCC(=O)O)NC(=O)c1ccc2c(c1)C(=O)OC21c2ccc(N(C)C)cc2Oc2cc(N(C)C)ccc21)C(C)C)C(=O)N[C@@H](Cc1ccc(O)cc1)C(=O)N[C@H](C(=O)N[C@@H](CC(=O)O)C(=O)N1CCC[C@H]1C(=O)N[C@@H](CCSC)C(=O)N[C@@H](CCC(N)=O)C(=O)N[C@@H](CC(=O)O)C(=O)O)C(C)C  Kd (Tyrosine-protein kinase ZAP-70, SH2 domains (ZAP70, Homo sapiens, UniProt P43403); binding): 1050 nM
CSCC[C@H](NC(=O)[C@H](CCC(N)=O)NC(=O)[C@H](CC(C)C)NC(=O)[C@H](CO)NC(=O)[C@H](CCC(N)=O)NC(=O)[C@H](CC(C)C)NC(=O)[C@H](CCC(=O)O)NC(=O)CNC(=O)[C@@H](NC(=O)[C@H](CO)NC(=O)[C@@H]1CCCN1C(=O)[C@H](CC(=O)O)NC(=O)[C@@H](NC(=O)[C@H](CCC(=O)O)NC(=O)[C@H](CCCCN)NC(=O)[C@H](CO)NC(=O)[C@H](CO)NC(=O)[C@H](CC(C)C)NC(C)=O)C(C)C)[C@@H](C)O)C(=O)N1CCC[C@H]1C(=O)N[C@@H](CCC(=O)O)C(N)=O  Kd (Kelch-like ECH-associated protein 1, Kelch domain (KEAP1, Homo sapiens, UniProt Q14145); binding to Kelch domain, isothermal titration calorimetry; pH 7, 25 °C): 1700 ± 40 nM
CC(C)C[C@H](NC(=O)[C@H](Cc1ccc(OP(=O)(O)O)cc1)NC(=O)[C@H](CCC(=O)O)NC(=O)[C@@H]1CCCN1C(=O)[C@H](CC(N)=O)NC(=O)CNC(=O)[C@@H](NC(=O)[C@H](C)NC(=O)[C@@H](NC(=O)[C@H](CO)NC(=O)[C@H](Cc1c[nH]cn1)NC(=O)c1ccc2c(c1)C(=O)OC21c2ccc(N(C)C)cc2Oc2cc(N(C)C)ccc21)[C@@H](C)O)C(C)C)C(=O)N[C@@H](CC(N)=O)C(=O)N[C@H](C(=O)N[C@H](C(=O)N[C@@H](CCC(N)=O)C(=O)N1CCC[C@H]1C(=O)N[C@H](C(=O)N[C@@H](CC(=O)O)C(=O)O)[C@@H](C)O)C(C)C)[C@@H](C)O  Kd (NCK2 SH2 domain; binding): 326 nM
CC1=C(N(C)C)C(=O)c2ccccc2C1=O  Kd (Reaction center protein L chain, QB site (pufL, Cereibacter sphaeroides, UniProt P0C0Y8); QB site binding, competitive inhibitor): > 100000 nM
COc1ccc(C[C@@H](C)NC[C@H](O)c2ccc(O)c3[nH]c(=O)ccc23)cc1  Kd (ADRB1 (Meleagris gallopavo, UniProt P07700, A282L/C116L/F327A/F338M/M90V/R68S/Y227A); binding, [3H]-CGP 12177 competition binding; CHO cells expressing ADRB1 β6-m23, whole cells): 1740 nM
Cn1c2cccc(=O)c-2nc2ccccc21  Kd (TetR-family regulator NalD (Pseudomonas aeruginosa, UniProt Q9HY46, F174A/H167A/N175A)): 18700 nM
CC[C@H](CO)Nc1nc(NCc2ccc(-c3ccccn3)cc2)c2ncn(C(C)C)c2n1  Kd (Cyclin-dependent kinase 9 (CDK9, Homo sapiens, UniProt P50750); binding, competition affinity chromatography; SH-SY5Y cell extract): 449 nM
CC[C@H](C)[C@H](NC(=O)[C@H](CC(=O)O)NC(=O)[C@H](C)NC(=O)[C@H](Cc1ccc(OP(=O)(O)O)cc1)NC(=O)[C@H](CCCCN)NC(=O)[C@@H](NC(=O)[C@H](CC(=O)O)NC(=O)CNC(=O)[C@H](CCCCN)NC(=O)[C@H](CCSC)NC(=O)[C@H](CC(=O)O)NC(=O)[C@H](CC(C)C)NC(=O)[C@H](CCSC)NC(=O)c1ccc2c(c1)C(=O)OC21c2ccc(N(C)C)cc2Oc2cc(N(C)C)ccc21)C(C)C)C(=O)N[C@@H](CCC(=O)O)C(=O)N[C@@H](CO)C(=O)N[C@@H](CO)C(=O)N[C@@H](CC(N)=O)C(=O)N[C@@H](CC(=O)O)C(=O)O  Kd (Crk-like protein, SH2 domain (Homo sapiens, UniProt P46109); binding): 1550 nM
C[n+]1cn([C@@H]2O[C@H](COP(=O)(O)OP(=O)([O-])OP(=O)(O)OC[C@H]3O[C@@H](n4cnc5c(=O)[nH]c(N)nc54)[C@H](O)[C@@H]3O)[C@@H](O)[C@H]2O)c2nc(N)[nH]c(=O)c21  Kd (m7GpppX diphosphatase (DCS1, Saccharomyces cerevisiae, UniProt Q06151, H268N); binding, first binding event, isothermal titration calorimetry; 25 °C): 30 nM
CC[C@H](C)[C@@H]1NC(=O)[C@H](CCCNC(=N)N)NC(=O)[C@@H]2CCCN2C(=O)[C@H](Cc2ccccc2)NC(=O)[C@H]([C@@H](C)O)NC(=O)CNC(=O)[C@H](CC(C)C)NC(=O)[C@@H]2CCCN2C(=O)[C@H]([C@@H](C)O)NC(=O)[C@H](Cc2c[nH]c3ccccc23)NC(=O)[C@H](Cc2ccc(O)cc2)NC(=O)[C@H]([C@@H](C)CC)NC(=O)[C@H]([C@@H](C)O)NC(=O)[C@H]([C@@H](C)O)NC(=O)[C@@H](Cc2ccc(O)cc2)NC(=O)CSC[C@@H](C(N)=O)NC(=O)[C@H](CCCNC(=N)N)NC1=O  Kd (VPS35/VPS29 (Homo sapiens, UniProt Q96QK1+Q9UBQ0); binding, ITC; 25 °C, heterodimer): 65 ± 5 nM
CC[C@H](C)[C@H](NC(=O)[C@H](CCCNC(=N)N)NC(=O)CNC(=O)[C@H](Cc1c[nH]c2ccccc12)NC(=O)[C@@H]1CSC[C@@H](NC(=O)[C@H](Cc2ccc(O)cc2)NC(=O)[C@H](Cc2c[nH]c3ccccc23)NC(=O)[C@H](CC(C)C)NC(=O)CNC(=O)[C@H](CCCNC(=N)N)NC(=O)c2ccc3c(c2)C(=O)OC32c3ccc(O)cc3Oc3cc(O)ccc32)C(=O)N[C@@H](CC(C)C)C(=O)N[C@@H]([C@@H](C)O)C(=O)N1)C(=O)NCC(=O)N[C@@H](CCCNC(=N)N)C(=O)N[C@@H](CCCNC(=N)N)C(=O)NCCCOCCOCCOCCCNC(=O)CCC(=O)NCCCOCCOCCOCCCNC(=O)CCC(=O)NCCCOCCOCCOCCCNC(=O)CCC(=O)N[C@@H](C)C(=O)O  Kd (srtA (Staphylococcus aureus, UniProt Q2FV99); binding, fluorescence polarization; pH 7.5): 32400 ± 2500 nM
CSCC[C@H](N)C(=O)N[C@@H](C)C(=O)N[C@@H](C)C(=O)N[C@H](C(=O)N[C@@H](C)C(=O)NCC(=O)N[C@@H](CC(C)C)C(=O)N[C@@H](Cc1ccc(O)cc1)C(=O)NCC(=O)N[C@@H](CC(C)C)C(=O)NCC(=O)N[C@@H](CCC(=O)O)C(=O)N[C@@H](CC(=O)O)C(=O)N[C@@H](CCCNC(=N)N)C(=O)N[C@@H](CCC(N)=O)C(=O)N[C@@H](Cc1c[nH]cn1)C(=O)N[C@@H](CCCNC(=N)N)C(=O)N[C@@H](CCCCN)C(=O)N[C@@H](CCCCN)C(=O)N[C@@H](CCC(N)=O)C(N)=O)C(C)C  Kd (Sh, DEL6-46 (Drosophila melanogaster, UniProt P08510); ion current, blocker, inside-out patch clamp; Xenopus oocytes; range over 50 µM, pH 7.0, 22–24 °C, at 0 mV): 5100 nM
CC(C)C[C@H](NC(=O)[C@@H](NC(=O)[C@H](CO)NC(=O)[C@H](CO)NC(=O)[C@@H](NC(=O)[C@H](CC(=O)O)NC(=O)[C@H](CC(C)C)NC(=O)[C@@H]1CCCN1C(=O)[C@H](CO)NC(=O)c1ccc2c(c1)C(=O)OC21c2ccc(N(C)C)cc2Oc2cc(N(C)C)ccc21)[C@@H](C)O)C(C)C)C(=O)N[C@@H](Cc1ccc(OP(=O)(O)O)cc1)C(=O)N[C@H](C(=O)N[C@@H](C)C(=O)N[C@H](C(=O)N[C@@H](CCC(N)=O)C(=O)N1CCC[C@H]1C(=O)N[C@@H](CC(N)=O)C(=O)N[C@@H](CCC(=O)O)C(=O)N[C@@H](CC(=O)O)C(=O)O)C(C)C)[C@@H](C)O  Kd (Tyrosine-protein kinase TXK, SH2 domain (TXK, Homo sapiens, UniProt P42681); binding): 1140 nM
O=C(CO)[C@@H](O)[C@H](O)[C@H](O)COP(=O)(O)O  Kd (pfkA (Geobacillus stearothermophilus, UniProt P00512, T156A)): 520000 ± 10000 nM
CSCC[C@H](NC(=O)CNC(=O)[C@H](Cc1ccccc1)NC(=O)[C@H](CC(=O)O)NC(=O)CNC(=O)c1ccc2c(c1)C(=O)OC21c2ccc(N(C)C)cc2Oc2cc(N(C)C)ccc21)C(=O)N[C@@H](CO)C(=O)N[C@@H](CCCNC(=N)N)C(=O)N[C@@H](CC(=O)O)C(=O)N[C@H](C(=O)N[C@@H](Cc1ccc(OP(=O)(O)O)cc1)C(=O)N[C@@H](CO)C(=O)N[C@H](C(=O)N[C@@H](CC(=O)O)C(=O)N[C@@H](Cc1ccc(O)cc1)C(=O)N[C@@H](Cc1ccc(O)cc1)C(=O)N[C@@H](CCCNC(=N)N)C(=O)N[C@H](C(=O)N[C@@H](CC(=O)O)C(=O)O)C(C)C)[C@@H](C)O)C(C)C  Kd (Tyrosine-protein kinase JAK2, SH2 domain (JAK2, Homo sapiens, UniProt O60674); binding): 618 nM
CC[C@H](C)[C@H](NC(=O)[C@H](CCC(N)=O)NC(=O)[C@H](CCCNC(=N)N)NC(=O)[C@H](CC(=O)O)NC(=O)[C@H](CCC(=O)O)NC(=O)[C@H](CC(=O)O)NC(=O)[C@H](CO)NC(=O)[C@H](Cc1ccc(O)cc1)NC(=O)[C@H](CCC(=O)O)NC(=O)[C@H](CCCNC(=N)N)NC(=O)[C@H](CC(=O)O)NC(=O)[C@@H]1CCCN1C(=O)[C@H](Cc1ccc(O)cc1)NC(=O)[C@H](CO)NC(=O)[C@@H]1CCCN1C(=O)[C@H](CO)NC(=O)[C@@H](N)CCC(N)=O)C(=O)N[C@@H](CCCCN)C(=O)N[C@@H](CCC(N)=O)C(=O)N[C@@H](CCSC)C(=O)N[C@@H](CC(C)C)C(=O)N[C@@H](Cc1c[nH]cn1)C(=O)N[C@@H](CCC(N)=O)C(=O)N[C@@H](CCC(=O)O)C(=O)N[C@@H](CS)C(=O)N1CCC[C@H]1C(=O)N[C@@H](CCCNC(=N)N)C(=O)N[C@@H](CC(C)C)C(N)=O  Kd (chicken IgY; binding, SPR): 4.1 ± 0.2 nM
CC[C@H](C)[C@H](NC(=O)[C@H](Cc1ccc(OP(=O)(O)O)cc1)NC(=O)[C@H](CCC(=O)O)NC(=O)[C@@H]1CCCN1C(=O)[C@@H](NC(=O)[C@@H]1CCCN1C(=O)[C@H](CC(C)C)NC(=O)[C@H](Cc1ccccc1)NC(=O)[C@@H](NC(=O)[C@H](CC(=O)O)NC(=O)[C@H](CC(=O)O)NC(=O)c1ccc2c(c1)C(=O)OC21c2ccc(N(C)C)cc2Oc2cc(N(C)C)ccc21)[C@@H](C)O)C(C)C)C(=O)N[C@@H](CC(N)=O)C(=O)N[C@@H](CCC(N)=O)C(=O)N[C@@H](CO)C(=O)N[C@H](C(=O)N1CCC[C@H]1C(=O)N[C@@H](CCCCN)C(=O)N[C@@H](CC(=O)O)C(=O)O)C(C)C  Kd (NCK2 SH2 domain; binding): 1100 nM
CO[C@@H]1[C@@H](OC(N)=O)[C@@H](O)[C@H](Oc2ccc3c(O)c(NC(=O)c4ccc(O)c(CC=C(C)C)c4)c(=O)oc3c2C)OC1(C)C  Kd (TetR-family regulator NalD (Pseudomonas aeruginosa, UniProt Q9HY46); binding, surface plasmon resonance): ~3550 nM
C=C(OP(=O)(O)O)C(=O)O  Kd (pfkA (Geobacillus stearothermophilus, UniProt P00512, S159A)): 12000 ± 1000 nM
Nc1ncnc2c1ncn2[C@@H]1O[C@H](COP(=O)(O)OP(=O)(O)O)[C@@H](O)[C@H]1O  Kd (Cell cycle histidine kinase CckA, cytoplasmic region (Caulobacter vibrioides, UniProt Q9X688); binding, isothermal titration calorimetry; without c-di-GMP, apparent): 530000 nM
C[N+](C)(C)[C@@H](Cc1c[nH]c(=S)[nH]1)C(=O)[O-]  Kd (egtUBC (Streptococcus pneumoniae, UniProt A0A0H2ZQB9, I243A); binding): 1690 nM

A few entries again:
CC[C@H](CO)Nc1nc(NCc2ccc(-c3ccccn3)cc2)c2ncn(C(C)C)c2n1  Kd (Cyclin-dependent kinase 9 (CDK9, Homo sapiens, UniProt P50750); binding, competition affinity chromatography; SH-SY5Y cell extract): 449 nM
CC[C@H](C)[C@H](NC(=O)[C@H](CC(=O)O)NC(=O)[C@H](C)NC(=O)[C@H](Cc1ccc(OP(=O)(O)O)cc1)NC(=O)[C@H](CCCCN)NC(=O)[C@@H](NC(=O)[C@H](CC(=O)O)NC(=O)CNC(=O)[C@H](CCCCN)NC(=O)[C@H](CCSC)NC(=O)[C@H](CC(=O)O)NC(=O)[C@H](CC(C)C)NC(=O)[C@H](CCSC)NC(=O)c1ccc2c(c1)C(=O)OC21c2ccc(N(C)C)cc2Oc2cc(N(C)C)ccc21)C(C)C)C(=O)N[C@@H](CCC(=O)O)C(=O)N[C@@H](CO)C(=O)N[C@@H](CO)C(=O)N[C@@H](CC(N)=O)C(=O)N[C@@H](CC(=O)O)C(=O)O  Kd (Crk-like protein, SH2 domain (Homo sapiens, UniProt P46109); binding): 1550 nM
C[n+]1cn([C@@H]2O[C@H](COP(=O)(O)OP(=O)([O-])OP(=O)(O)OC[C@H]3O[C@@H](n4cnc5c(=O)[nH]c(N)nc54)[C@H](O)[C@@H]3O)[C@@H](O)[C@H]2O)c2nc(N)[nH]c(=O)c21  Kd (m7GpppX diphosphatase (DCS1, Saccharomyces cerevisiae, UniProt Q06151, H268N); binding, first binding event, isothermal titration calorimetry; 25 °C): 30 nM
